Assay results of several laboratories.
“And” joins repeats or separate records; there may be more than shown.
Target: Serine/threonine-protein kinase 26 (STK26, Homo sapiens, UniProt Q9P289)
UniProt Q9P289, sequence (whole entry, unmodified, looked up): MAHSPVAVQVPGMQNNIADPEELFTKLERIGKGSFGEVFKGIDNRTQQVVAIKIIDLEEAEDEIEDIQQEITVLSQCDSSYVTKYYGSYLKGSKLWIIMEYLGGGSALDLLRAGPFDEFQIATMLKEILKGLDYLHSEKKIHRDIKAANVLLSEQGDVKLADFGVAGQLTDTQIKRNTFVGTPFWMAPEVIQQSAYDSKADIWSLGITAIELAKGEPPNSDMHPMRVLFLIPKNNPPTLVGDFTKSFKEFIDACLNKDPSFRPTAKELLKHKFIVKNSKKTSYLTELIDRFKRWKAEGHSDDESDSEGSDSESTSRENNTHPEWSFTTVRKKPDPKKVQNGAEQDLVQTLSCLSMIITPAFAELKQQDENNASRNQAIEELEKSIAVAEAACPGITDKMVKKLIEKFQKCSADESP

For COc1cc(Nc2nc(C)cc(-c3cnn4nc(OC)ccc34)n2)cc(C(F)(F)F)c1, “percent of control binding” read 85% (kinase binding; 1 µM, MST4).
The remaining activity of Nc1ncc(-c2cc(-c3cnn(CC(F)(F)F)c3)ncc2F)nc1C(=O)NC1CNCC(F)C1 (centres unmarked) is reported as 106% (enzyme activity; 1 µM; baseline: DMSO control).
For CC(C)=CC1OC(C)(C)C2C=C3C(=O)C(Cl)=CC(O)C3C3C(O)C4OC4C(=O)C132 (centres unmarked), the remaining binding was 92% (cell-free assay, competition with immobilised ligand; 10 µM).
With C=CC(=O)Nc1cccc(-c2cnc3[nH]cc(C(=O)NC(C)(C)C)c3n2)c1 the inhibition was 32% (enzyme activity, inhibitor; 0.1 µM).
C=CC(=O)N1CCc2ccc(-n3c(=O)ccc4cnc5ccc(-c6cnn(C)c6)cc5c43)cc21 has a remaining binding of 99% (KINOMEscan; 1 µM; baseline: DMSO control).
Under “log2 LFQ intensity”, N[C@H]1CC[C@H](Nc2nccc(-c3cccnc3Oc3ccc(NC(=O)NC4CC4)c4ccccc34)n2)CC1 is recorded as 19.6 and 19.7 and 18.6 and 20.1 (kinobead competition pulldown; HEK293/HCT116 lysate mixture; 10 µM, 1 h, 4 °C; lower = stronger competition).
The remaining activity of Cc1cccc(-c2ccc3nc(NC(=O)C4CCOCC4)nn3c2)c1 is reported as 84% (enzyme activity, Dundee kinase panel; 10 µM).
For COCC12C(=O)NC3C4(C(OC)CC1O)C1CC5(O)C(OC)C(O)C(OC(C)=O)(C1C5OC(=O)c1ccccc1)C3(O)C(OC)C24 (centres unmarked), the remaining activity was 112% and 117% (kinase activity, inhibitor, ProQinase kinase profiling; 25 µM; baseline: control).
With Cc1cccc(O[C@H]2CCC[C@@H](C(C)CNCc3ccncc3)C2)c1 (relative stereo) the inhibition was -14% (enzyme activity, inhibitor; 10 µM).
For CCN1CCN(Cc2ccc(C(=O)Nc3ccc(C)c(NCc4cnc5[nH]ccc5c4OC)c3)cc2C(F)(F)F)CC1, the remaining binding was 25% (binding, competition with immobilised ligand; 1 µM).
For Cc1cnc2nc1Nc1cccc(c1)COC/C=C/COCc1cc(ccc1OCCN1CCOCC1)N2, the remaining binding was 76% (binding; 0.1 µM).
For Cc1cccc(-c2ccc3nc(NC(=O)C4CCCCC4)nn3c2)c1, the remaining activity was 79% (enzyme activity, Dundee kinase panel; 10 µM).
CNC(=O)C[C@H](Cc1ccc(C#N)cc1)NC(=O)c1cc(-c2ccc(CN[C@H](C)c3ccc(C)cc3)o2)ccc1Cl: “activity vs control” 90% (enzyme activity, inhibitor; 1 µM).
For C=CC(=O)N1CCCC(n2c(=O)c3ncccc3n(Cc3ccc(Oc4ccccc4)cc3)c2=O)C1 (centres unmarked), the remaining binding was 92% (cell-free assay, competition with immobilised ligand; 1 µM).
With NC(=O)[C@@H](O)C[C@H]1CCc2sc3ncnc(O[C@H]4CC[C@H](N5CCOCC5)CC4)c3c21 the inhibition was 8% (enzyme activity, inhibitor; 10 µM).
With Nc1ncc2c(n1)-c1c([nH]c3ccc(C4=CCOCC4)cc13)CCC2 the remaining binding was 93% (binding, competition with immobilised ligand; 1 µM).
CCn1cc(C(=O)O)c(=O)c2c(N)c(F)c(NC3CCCCC3)cc21 gave an inhibition of -5.5% (kinase activity; 0.1 µM, with: ATP at Km).

For quick reference, copied from above:
The remaining activity of Cc1cccc(-c2ccc3nc(NC(=O)C4CCOCC4)nn3c2)c1 is reported as 84% (enzyme activity, Dundee kinase panel; 10 µM).
For COCC12C(=O)NC3C4(C(OC)CC1O)C1CC5(O)C(OC)C(O)C(OC(C)=O)(C1C5OC(=O)c1ccccc1)C3(O)C(OC)C24 (centres unmarked), the remaining activity was 112% and 117% (kinase activity, inhibitor, ProQinase kinase profiling; 25 µM; baseline: control).
